# Measurements from different studies.
# Every numbered part comes from another study and shows a few of its results, in no order. Substitutions count along the parent as printed.

# Set 1
# Target: HLA class I histocompatibility antigen, A alpha chain, allele A*80:01 (Homo sapiens, UniProt P04439)
# Read-out: peptide-MHC binding
# Molecule type: peptide
# Tested at: concentration not given
Sequence,binding
QTDNQLAVF,inactive
FHERGYVKL,inactive
LMLHQQYNQ,inactive

# Set 2
# Variant: L82H
# Target: ABI1, truncated, D143A, DHFR fusion (Arabidopsis thaliana)
# Technique: DHFR PCA, deep sequencing
# Sample: yeast
# Notes: methotrexate growth selection, single substitutions
# Relative to: wild-type fitted maximum
# Reading: higher = stronger binding
# Parent: PYL1, truncated, DHFR fusion (Arabidopsis thaliana); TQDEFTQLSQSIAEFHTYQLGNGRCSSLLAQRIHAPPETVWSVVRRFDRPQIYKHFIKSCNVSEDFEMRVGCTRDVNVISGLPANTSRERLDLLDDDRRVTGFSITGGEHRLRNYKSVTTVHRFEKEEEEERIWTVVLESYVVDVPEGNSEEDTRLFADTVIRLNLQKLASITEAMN; partner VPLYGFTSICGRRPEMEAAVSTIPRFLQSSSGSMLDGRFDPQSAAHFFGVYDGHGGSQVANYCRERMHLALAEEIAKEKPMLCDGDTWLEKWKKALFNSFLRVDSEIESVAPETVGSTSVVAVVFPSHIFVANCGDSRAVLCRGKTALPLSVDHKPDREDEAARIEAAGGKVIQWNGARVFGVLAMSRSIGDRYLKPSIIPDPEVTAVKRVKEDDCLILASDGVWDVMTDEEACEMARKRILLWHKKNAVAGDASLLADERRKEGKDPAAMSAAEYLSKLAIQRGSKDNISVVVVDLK
conditions,relative binding score
with: (+)-ABA 0.032 µM,27.2%
with: (+)-ABA 2500 µM,44.1%
with: (+)-ABA 0 µM,29.8%
with: (+)-ABA 58 µM,0.12%
with: (+)-ABA 0.11 µM,32.8%
with: (+)-ABA 200 µM,24.8%

# Set 3
# Target: CCNB2, cyclin fold, Cln2 fusion (human)
# Technique: yeast growth competition, sequencing
# Sample: yeast
# Notes: strong parent motif
# Relative to: not given
# Reading: higher = stronger binding
# Parent: viral docking peptide; YKVKRRLVFGADD; partner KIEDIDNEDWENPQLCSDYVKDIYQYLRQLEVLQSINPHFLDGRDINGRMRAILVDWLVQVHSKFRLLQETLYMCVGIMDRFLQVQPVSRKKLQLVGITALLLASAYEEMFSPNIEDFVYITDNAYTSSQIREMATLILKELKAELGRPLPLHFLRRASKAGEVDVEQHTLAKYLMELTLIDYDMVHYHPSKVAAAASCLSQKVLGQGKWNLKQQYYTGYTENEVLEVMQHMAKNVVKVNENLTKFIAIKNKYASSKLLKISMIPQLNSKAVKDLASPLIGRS
Variant,normalised enrichment score
YKYKRRLVFGADD [V3Y],0.337
YFVKRRLVFGADD [K2F],0.993
YKVKIRLVFGADD [R5I],0.23
YKVKRRLVFYADD [G10Y],1.57
YKVKRRLVFGAWD [D12W],0.981
YKVCRRLVFGADD [K4C],0.994
YKVKRRLVFHADD [G10H],1.77
YKVKTRLVFGADD [R5T],0.365
YKNKRRLVFGADD [V3N],0.56
YKVKRRMVFGADD [L7M],0.576
YKVKRRLQFGADD [V8Q],1.22
YKVKRRLVYGADD [F9Y],1.16
YKVSRRLVFGADD [K4S],0.719
YKLKRRLVFGADD [V3L],0.927
YKVKRRLVFDADD [G10D],3.57
YKVKHRLVFGADD [R5H],0.194
YKVKRILVFGADD [R6I],0.488

# Set 4
# Target: RNA binding protein fox-1 homolog 2, RRM domain, GST-SBP tag (RBFOX2, Homo sapiens, UniProt O43251-10, residues 100-194)
# Technique: RNA Bind-n-Seq
# Molecule type: RNA
# Sample: in vitro
# Tested at: 365 nM
# Notes: natural RNA segment, single round, ends assumed
# Relative to: no-protein control
# Reading: higher = stronger binding
# All sequences stand within: GGGAGUUCUACAGUCCGACGAUC … UGGAAUUCUCGGGUGCCAA
# Target sequence (chain): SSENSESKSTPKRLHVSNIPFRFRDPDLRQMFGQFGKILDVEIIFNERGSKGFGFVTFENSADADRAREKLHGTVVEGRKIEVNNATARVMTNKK
Sequence,RBNS enrichment (R)
UCUACUGAGCUGGGCUACUGUACACAAUGGACAGUGUGCAUUUCUGUACAGGUUACGGUUCUAUGCAUAAACAUUUUAGAAAACAAACAUAGAAACUUAGGCACUUUGCU,0.463
UUCCAUAAGUAGAACAAGAUAGAUUCUACCCCCAAAAUAUUCAUAAGCAAAUCCCACUGCCCUUAAAAUAAGGAAGUUAUGCCUGGUUGUCUGUGAAUGGAACCUCAGUA,0.65
ACCUGCAGCAGCAUGUCUGGCAAACUGAGUCGCCCUCCUGCCUCCAGCUCUCUGUUGAGCAGAGGGAAGGCAUGGGGGCAGGAAGAGAGCUGAGCAUUGAUGGGGAUGGG,2.19
UGUUGUUUUGUUGUUUUACUAUAUGUAAUACAAGCCUACAGUAUUUGCACUAAAGAAAGCUUGUUAGAAAAAGCUUGCUGCUAUGGAAGAAAGAACAUAUUAAAACUUCU,0.45
GCCUAAGCACUUCACUCACACACGCGAGUGGGCGAGUGCGUGUGCCUGUGCACACUUCACACACUGGGGCGGGACAUAGGCCGCAGGGACCCAGGGUCGCCUCAGGCAAA,0.194
GGUCCCUCUCUGGUCUGACGCUCCCUAUAGGUUCCACCGCACGACAGCCUGUCCAUCAAAACUUGUCCUGUACCCAGGACAGUACCAGCUUCCUGUCCCCCGACCCUAAC,2.59
CAUGACUGCAGUAUGCAUGUAUUUUUUUCCUUCUCUGUGUUUUCUAAACUUACACUAAAGGAUUCAUCAAAUCAUCUUGUUCAGAUGGCUCAGGAUUGUAUUUAUUUUGC,1.73
UAUUCAGGAAUUGCAGAGAAAUGCAUUUUCACAGAAAUCAAGAUGUUAUUUUUGUAUACUAUAUCACUUAGACAACUGUGUUUCAUUUGCUGUAAUCAGUUUUUAAAAGU,0.464

# Other studies, line by line
Molecule,partner,test,test system,conditions,quantity,value
"SF3B1 (Homo sapiens, UniProt O75533)","PHF5A (Homo sapiens, UniProt Q7RTV0)",cross-linking MS,cells,with: BSPNO,cross-linked residues,K554 to K13

# Some of these lines once more (set 2):
conditions,relative binding score
with: (+)-ABA 0 µM,29.8%
with: (+)-ABA 2500 µM,44.1%
with: (+)-ABA 0.11 µM,32.8%
with: (+)-ABA 0.032 µM,27.2%
with: (+)-ABA 200 µM,24.8%
with: (+)-ABA 58 µM,0.12%
